Experimental data gathered from unrelated publications.
Lines come from different studies, so protocols differ. “And” joins repeats or separate records; there may be more than shown. ± gives the spread as reported.

O=C(CN1CN(c2ccccc2)C2(CCN(C(=O)c3cnc4[nH]ncc4c3)CC2)C1=O)NCC(F)(F)F — Papp (PAMPA): 1.73 ×10⁻⁶ cm/s
CC[C@H](C)[C@H](NC(=O)[C@H](CCCCN)NC(=O)CNC(=O)[C@H](CC(C)C)NC(=O)[C@H](Cc1ccccc1)NC(=O)[C@H](CCCCN)NC(=O)[C@H](CO)NC(=O)[C@H](Cc1ccccc1)NC(=O)[C@H](Cc1c[nH]c2ccccc12)NC(=O)[C@H](CCC(N)=O)NC(=O)[C@@H](NC(=O)[C@H](Cc1ccccc1)NC(=O)CCCCCNC(=O)CN1CCN(CC(=O)O)CCN(CC(=O)O)CCN(CC(=O)O)CC1)C(C)C)C(=O)N[C@@H](CCC(=O)O)C(=O)N1CCC[C@H]1C(=O)N[C@@H](CC(=O)O)C(=O)N[C@H](C(=O)N[C@@H](CO)C(=O)N[C@@H](CCC(N)=O)C(=O)N[C@H](C(=O)N[C@@H](CCC(N)=O)C(=O)N[C@@H](CC(=O)O)C(=O)N1CCC[C@H]1C(=O)N[C@@H](CC(N)=O)C(=O)N[C@@H](CC(=O)O)C(=O)N[C@@H](CCC(N)=O)C(=O)N[C@@H](Cc1ccc(O)cc1)C(=O)N[C@@H](CCC(=O)O)C(=O)N1CCC[C@H]1C(=O)N[C@@H](Cc1ccccc1)C(=O)O)C(C)C)C(C)C [copper-64 labelled] — tissue uptake (BALB/c mice, male, CT26 tumour-bearing, liver; 2 h, anti-PD1 plus anti-CTLA4 treated): 8.15 ± 1.4 %ID/g
C(#Cc1cncc(OC[C@@H]2CCN2)c1)c1ccccc1 — concentration (male Sprague-Dawley rat, plasma; oral, 75 mg/kg, 7 h): 250 ng/mL
CSCC[C@H](N)C(=O)N[C@@H](C)C(=O)N[C@@H](CCCNC(=N)N)C(=O)N[C@@H](CCCNC(=N)N)C(=O)N[C@@H](CC(=O)O)C(=O)N[C@@H](CCCCN)C(=O)N[C@H](C(=O)N[C@@H](CC(=O)O)C(=O)N[C@@H](Cc1ccccc1)C(=O)N[C@@H](C)C(=O)N[C@@H](CCCNC(=N)N)C(=O)N[C@@H](CCCNC(=N)N)C(=O)N[C@@H](CCCNC(=N)N)C(=O)N[C@@H](CCCNC(=N)N)C(=O)NCCCCCC(=O)NCCCCC(NC(=O)CCCCCNC(=O)[C@H](CCCNC(=N)N)NC(=O)[C@H](CCCNC(=N)N)NC(=O)[C@H](CCCNC(=N)N)NC(=O)[C@H](CCCNC(=N)N)NC(=O)[C@H](C)NC(=O)[C@H](Cc1ccccc1)NC(=O)[C@H](CC(=O)O)NC(=O)[C@@H](NC(=O)[C@H](CCCCN)NC(=O)[C@H](CC(=O)O)NC(=O)[C@H](CCCNC(=N)N)NC(=O)[C@H](CCCNC(=N)N)NC(=O)[C@H](C)NC(=O)[C@@H](N)CCSC)[C@@H](C)O)C(=O)NCCCCC(NC(=O)C(CCCCNC(=O)CCCCCNC(=O)[C@H](CCCNC(=N)N)NC(=O)[C@H](CCCNC(=N)N)NC(=O)[C@H](CCCNC(=N)N)NC(=O)[C@H](CCCNC(=N)N)NC(=O)[C@H](C)NC(=O)[C@H](Cc1ccccc1)NC(=O)[C@H](CC(=O)O)NC(=O)[C@@H](NC(=O)[C@H](CCCCN)NC(=O)[C@H](CC(=O)O)NC(=O)[C@H](CCCNC(=N)N)NC(=O)[C@H](CCCNC(=N)N)NC(=O)[C@H](C)NC(=O)[C@@H](N)CCSC)[C@@H](C)O)NC(=O)CCCCCNC(=O)[C@H](CCCNC(=N)N)NC(=O)[C@H](CCCNC(=N)N)NC(=O)[C@H](CCCNC(=N)N)NC(=O)[C@H](CCCNC(=N)N)NC(=O)[C@H](C)NC(=O)[C@H](Cc1ccccc1)NC(=O)[C@H](CC(=O)O)NC(=O)[C@@H](NC(=O)[C@H](CCCCN)NC(=O)[C@H](CC(=O)O)NC(=O)[C@H](CCCNC(=N)N)NC(=O)[C@H](CCCNC(=N)N)NC(=O)[C@H](C)NC(=O)[C@@H](N)CCSC)[C@@H](C)O)C(N)=O)[C@@H](C)O (some centres unmarked) — mean tissue distribution (C57BL/6 mouse female, lungs; dose not given, 6 h; relative to: total): 1.53%
CC(C)(CCCC/C=C/CCCCCC(C)(C)C(=O)O)C(=O)O — plasma concentration (beagle dog, both sexes; oral, dose not given, 5 h): 14000 ng/mL
Cc1cc(C)n(-c2nc(-c3ccccc3)cc(=O)n2CC(=O)Nc2cccc([N+](=O)[O-])c2)n1 — CLint (human liver microsomes; pH 7.4, with: NADPH): 25.2 ± 0.6 µL/min/mg
O=C1NC2(CC2)COc2ncc(F)cc2[C@H]2COCCN2c2ccn3ncc1c3n2 — organ weight (Sprague-Dawley rat, female, adrenals; oral, 2.5 mg/kg/day, 4 weeks): 0.075 ± 0.01 g
COc1cnc2cccc(N3CCc4c(cc(Cn5ccnc5)cc4-c4cn(C)nc4C(F)(F)F)C3=O)c2c1 — body weight (BALB/c nude mice, MV4-11 xenograft; intraperitoneal, 50 mg/kg, day 35): 24.1 g and 23.4 g and 20.1 g and 18.7 g and 21.3 g
CC1(C)C(=O)N(c2ccc(C#N)c(C(F)(F)F)c2)C(=S)N1c1ccc(C(N)=O)c(F)c1 — Cmax (human, male, plasma; oral, 40 mg, soft capsule): 118 ± 22.1 ng/mL
COc1ccc(CNc2ccc3c(c2)S(=O)(=O)C=C3)cc1 — plateletcrit (male C57BL/6 mice, blood; intraperitoneal, 20 mg/kg, day 8, group average): 4.74 mL/L
CC(C)=CCC/C(C)=C\CCn1cc(CC(P(=O)(O)O)P(=O)(O)O)nn1 — AUC(0-t) (CD-1 mouse, plasma; intravenous, 0.5 mg/kg, single dose): 446 ± 26 ng·h/mL
N=C(N)NCCC[C@H](NC(=O)[C@H](CCCNC(=N)N)NC(=O)[C@H](CCCNC(=N)N)NC(=O)[C@H](CCC(N)=O)NC(=O)[C@H](CCCNC(=N)N)NC(=O)[C@H](CCCNC(=N)N)NC(=O)[C@H](CCCCN)NC(=O)[C@H](CCCCN)NC(=O)[C@H](CCCNC(=N)N)NC(=O)CNC(=O)[C@H](Cc1ccc(O)cc1)NC(=O)[C@H](Cc1ccccc1)NC(=O)[C@H](Cc1ccccc1)NC(=O)[C@H](Cc1ccccc1)NC(=O)OCC1c2ccccc2-c2ccccc21)C(=O)O — health score (C57BL/6 mice; intraperitoneal, 10 mg/kg, 48 h; direction not given): 5
CCCCc1cn([C@H]2[C@H]([C@H](O)[C@H](O)CO)OC(C(=O)OC)=C[C@@H]2O)nn1 — logD (shake flask; aqueous buffer; 2 h, pH 7.4): 0.6
N#[11C]c1ccc(-c2csc(NN=C3CCCC3)n2)cc1 — radioactivity uptake (C57BL/6 mice, male, lung; intravenous, 3 MBq, 15 min): 4.78 ± 0.16 %ID/g
CN1Cc2cc(Cl)ccc2-n2c(nnc2C2CCN(c3cccc(F)n3)CC2)C1 — concentration (mass spectrometry; male Sprague-Dawley rat, brain; intravenous, 0.03 mg/kg, 30 min): 2.68 ng/mL
CCc1nn(C)c2nc(-c3ccc(C(=O)O)cc3)nc(NCc3ccccc3)c12 — concentration (male CD-1 mouse, plasma; oral, 10 mg/kg, 15 min): 1260 ng/mL
Cc1ccccc1-c1ccc(-c2nc(-c3ccc(CN(C)CCCC(=O)O)c([18F])c3)no2)cc1C(F)(F)F — tracer uptake (rat, spleen; 30 min): 0.36 %ID/g
COC(=O)C[C@H](NC(=O)[C@H](C)NC(=O)[C@@H](NC(=O)[C@H](CC(=O)OC)NC(=O)[C@@H](NC(=O)c1ccc2ccccc2n1)C(C)C)C(C)C)C(=O)COc1c(F)cccc1F — NOAEL (general toxicity; dog; intravenous, multiple doses): 3 mg/kg/day
CSCC[C@H](NC(=O)CNC(=O)[C@H](CCCCN)NC(=O)[C@H](CC(C)C)NC(=O)[C@@H]1CCCN1C(=O)[C@H](CO)NC(=O)[C@H](Cc1c[nH]cn1)NC(=O)[C@H](Cc1c[nH]c2ccccc12)NC(=O)[C@H](CCCNC(=N)N)NC(=O)[C@H](CC(C)C)NC(=O)[C@H](CCCNC(=N)N)NC(=O)[C@H](Cc1c[nH]c2ccccc12)NC(=O)[C@H](CS)NC(=O)CCCCCNC(=O)CN1CCN(CC(=O)O)CCN(CC(=O)O)CCN(CC(=O)O)CC1)C(=O)O [copper-64 labelled] — tissue uptake (PET; C57BL/6J mice, B16-F10 tumour, liver; intravenous, 38 h): 4.48 ± 0.29 %ID/g
C#Cc1c(F)ccc2cc(O)cc(-c3ncc4c(N5CC6CCC(C5)N6C(=O)OC(C)OC(=O)CC)nc(OC[C@@]56CCCN5C[C@H](F)C6)nc4c3F)c12 (some centres unmarked) — t1/2 (measured: prodrug; mouse whole blood; 1 µM): 5.46 min

For quick reference, copied from above:
N#[11C]c1ccc(-c2csc(NN=C3CCCC3)n2)cc1 — radioactivity uptake (C57BL/6 mice, male, lung; intravenous, 3 MBq, 15 min): 4.78 ± 0.16 %ID/g
CN1Cc2cc(Cl)ccc2-n2c(nnc2C2CCN(c3cccc(F)n3)CC2)C1 — concentration (mass spectrometry; male Sprague-Dawley rat, brain; intravenous, 0.03 mg/kg, 30 min): 2.68 ng/mL
